Measured values from different studies.
Parts stem from different laboratories: compare values within a part only.

Series 1
Target: Histone acetyltransferase KAT6A, both winged helices, GST fusion (KAT6A, Homo sapiens, UniProt Q92794, residues 1-181)
Method: protein binding microarray
Form: double-stranded DNA, one strand shown
Sample: in vitro
Concentration: not given
Notes: 8-mer, flanks averaged, mean of 2 arrays, mostly near background
Baseline: not given
Reading: higher = stronger binding
Target sequence (chain): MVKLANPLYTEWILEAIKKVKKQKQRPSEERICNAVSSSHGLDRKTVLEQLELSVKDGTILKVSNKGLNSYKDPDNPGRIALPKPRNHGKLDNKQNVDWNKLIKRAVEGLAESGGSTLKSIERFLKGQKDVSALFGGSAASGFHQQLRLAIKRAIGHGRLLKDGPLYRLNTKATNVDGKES
| Strand | E-score |
| --- | --- |
| GGGCTATA | -0.0533 |
| ATTCGACG | -0.00086 |
| CGGTAGAA | 0.101 |
| ACCCCTAT | -0.112 |
| CCCGCCAC | 0.128 |
| CTGTGACA | -0.175 |
| AAGGCATA | -0.249 |
| CCTTGTAC | -0.108 |
| ATCTACTC | 0.00223 |
| ATAAGAGA | -0.125 |
| AGATCCTG | -0.128 |
| GTCGGGCA | 0.0723 |
| ATTCAATA | -0.122 |
| CTGCAGAA | -0.054 |
| AAGATACA | -0.155 |
| GGAGTCAC | -0.152 |
| CGAAATTC | 0.105 |
| AGAGGCAC | -0.1 |
| ACCAAGGG | -0.167 |
| ATTGGCAG | -0.124 |
| ATGGGGAC | -0.109 |
| AATCGTAA | -0.00575 |

Series 2
Target: RNA binding protein fox-1 homolog 2, RRM domain, GST-SBP tag (RBFOX2, Homo sapiens, UniProt O43251-10, residues 100-194)
Method: RNA Bind-n-Seq
Form: RNA
Sample: in vitro
Concentration: 365 nM
Notes: natural RNA segment, single round, ends assumed
Baseline: no-protein control
Reading: higher = stronger binding
Construct (chain): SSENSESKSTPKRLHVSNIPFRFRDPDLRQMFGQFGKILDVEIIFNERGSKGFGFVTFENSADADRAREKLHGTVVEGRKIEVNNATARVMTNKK
| Strand | RBNS enrichment (R) |
| --- | --- |
| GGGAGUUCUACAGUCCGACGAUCAGACCCGGGCGCUGCCGAGACCCCUCGGGGGCUGCACACCCAGCAGCAGCGCACGCCUCCGAAGCCUGCGGCCUCGCUUGAAGGAGGGCGUCGCCGGAAACCCAGGGAACUGGAAUUCUCGGGUGCCAA | 0.55 |
| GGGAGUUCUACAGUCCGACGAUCAAAACAAAACCCUCAGCACUGUUACAAGAGGCCAUUUAAGUAUCUUGUGCUUCUUCACUUACCCAUUAGCCAGGUUCUCAUUAGGUUUUGCUUGGGCCUCCCUGGCACUGUGGAAUUCUCGGGUGCCAA | 0.477 |
| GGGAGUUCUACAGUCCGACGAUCCUCAGAUGUGUAGACAUCCUCCGUAUAUUUACAUAACAUAUAGAGGUAAUAGAUAGGUGAUAUACAUGAUACAUUCUCAAGAGUUGCUUGACCGAAAGUUACAAGGACCCUGGAAUUCUCGGGUGCCAA | 0.521 |
| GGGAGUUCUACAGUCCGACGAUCCAUGUGAGGUUGUGGUCACAGCAUGGGGGCCUUGAGAGCCUGGCCAGGUGGCCCUCCACGUGAGGUCAUGGUCACAGCAUGGAGGCCUUGAGAGCCUGGCCAGGUGGCCCUGGAAUUCUCGGGUGCCAA | 6.25 |
| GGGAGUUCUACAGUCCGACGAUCAACAAUCUUGGUCUAUCUUUACCCUUAUACCUUAUCUGUAAUUUACCAUUUAUUGUAUUUGCAAAGCUAGUAUGGUUUUUAAUCACAGUAAAUCCUUUGUAUUCCAGACUUGGAAUUCUCGGGUGCCAA | 0.29 |
| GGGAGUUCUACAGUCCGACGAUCAGGGGAGAGUCCUCAUCUGCUGGCAUUUUGUGGGGUGUUAGUGCCAAACUUGAAUAGGGGCUGGGGUGCUGUCUUCCACUGACACCCAAAUCCAGAAUCCCUGGUCUUGAUGGAAUUCUCGGGUGCCAA | 0.858 |
| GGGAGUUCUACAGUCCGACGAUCCCAAAUGUAGCUCAUACCUCUUUAUAAAACUAAACUGUUGUUAGAUAAAAUGAGAAGAGACCAUUCCAUCAUUGAAGUGUUGGAAUAUAAAAAGACAUUCCAGAGCAUAGUGGAAUUCUCGGGUGCCAA | 1.04 |
| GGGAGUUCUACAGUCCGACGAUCCUCUCAUUCUCCCAAGGGUUGCAUUAAGGAAGUUGGAGGGAUGCUAUAUGGGGACUGGAUCCCAGUAAGGCUCACAAGGCUAAGGGGAACUUAAGUAUGGGAUACAGCACUGGAAUUCUCGGGUGCCAA | 1.28 |
| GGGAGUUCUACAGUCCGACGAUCGUUUAAUAAUAAGAAAAAGGCCAUUUCAUUUUAAAUUGUGACCUAUAAUUCUUUGUCUUGGGUUGGUAAUUCAGGAUUCAUUUGGAAAGUGGGUAAAAGGGGCUUCAAAAUGGAAUUCUCGGGUGCCAA | 0.82 |
| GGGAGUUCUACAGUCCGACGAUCUGAGAUACAUUGUUUUGGAAAUUCAUACAAUUUUCUCAACAUGGUACUCUACUGGCAGGAUGCAGUUUUAAAUUUUAUGCCAUCAGUUAUUUAUUCUUGUUUAUUCAAAUUGGAAUUCUCGGGUGCCAA | 0.775 |
| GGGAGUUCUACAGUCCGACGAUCUGUGCAUGGAGUGAGGUGUGUGUGUGUGGAUGGAUGUGCACGUGUGCAUGCUUUUUUUCUUUUUGCCGUGAGGACAGUUGAAUUUGGGGCAUUUUUCUACAAGAAGCAGUUGGAAUUCUCGGGUGCCAA | 14.4 |
| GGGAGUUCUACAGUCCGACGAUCUCAUAUUGUUUUUUCUAACAUGGCUUCAUUAAACGUUUAAGUAUUUUAAAACUAUGUAAUAUUUGGACCAGAUGUUGUGAAUAACAGUAGAGAAAGCUAUUUUAUUCUGUUGGAAUUCUCGGGUGCCAA | 0.446 |

Series 3
Target: Ras GTPase-activating protein-binding protein 1, full length (G3BP1, Homo sapiens, UniProt Q13283)
Sequence of UniProt Q13283 (whole entry, looked up): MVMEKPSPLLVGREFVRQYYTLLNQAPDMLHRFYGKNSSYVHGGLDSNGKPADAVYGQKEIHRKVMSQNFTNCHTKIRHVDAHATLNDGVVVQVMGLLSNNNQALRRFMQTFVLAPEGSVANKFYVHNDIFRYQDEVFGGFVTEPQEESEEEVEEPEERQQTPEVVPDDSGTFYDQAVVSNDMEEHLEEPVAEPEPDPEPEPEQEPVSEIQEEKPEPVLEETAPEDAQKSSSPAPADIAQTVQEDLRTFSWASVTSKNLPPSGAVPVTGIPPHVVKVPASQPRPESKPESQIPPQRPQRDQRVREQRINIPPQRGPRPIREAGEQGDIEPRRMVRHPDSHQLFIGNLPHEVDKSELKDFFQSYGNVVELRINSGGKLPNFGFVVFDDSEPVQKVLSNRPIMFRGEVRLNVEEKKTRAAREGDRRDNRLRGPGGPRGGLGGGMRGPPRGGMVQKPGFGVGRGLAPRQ
Method: RNA Bind-n-Seq
Form: RNA
Sample: in vitro
Concentration: 200 nM
Notes: whole 134-nt RNA, ends assumed
Added: 150 mM KCl
Baseline: input library
Reading: higher = stronger binding
| Strand | log2 enrichment |
| --- | --- |
| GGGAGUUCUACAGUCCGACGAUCCCUGUGCUACACAUCGUAUGUACCGAAUCGGGGCCCCCCGGCCCCCCGGGGCCCCCCGGGGAAAGUAUUAUGUUACGCCGUUCGGAUCUGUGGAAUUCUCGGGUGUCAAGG | -0.267 |
| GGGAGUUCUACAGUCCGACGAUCUGGGAGGUGGAAUUUGUUUAUUUUUUUAGCUCAUUUCCAGGGGUGGGAAUUUUUUUUUAAUAUGUGUCAUGAAUAAAGUUGUUUUUGAAAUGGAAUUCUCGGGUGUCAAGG | -0.0823 |
| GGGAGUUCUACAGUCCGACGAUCCACAGACAACACGCACCCACACAGACACAGAGGGAAGGGGUUGGGAUGGGGACAGGGUGCACAGCAGGGCGGGGGAGGACCCCAGCCCCUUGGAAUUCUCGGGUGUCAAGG | 1.8 |
| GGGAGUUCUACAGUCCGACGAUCCACAGACAACACGCACCCACACAGACACAGAGGGAAGGGGUUGGGAUGGGGACAGGGUGCACAGCAGGGCGGGGUGGGACCCCAGCCCCUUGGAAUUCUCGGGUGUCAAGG | 1.76 |
| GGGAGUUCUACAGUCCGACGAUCUUAAAGAAGAGGGUGUGCGGGACGUCCUUAAGGAUGUACUGCUCCCAUGGUACAAUGCCUAUCGCUUCUUAAUCCAGAACGUUCUGAGGCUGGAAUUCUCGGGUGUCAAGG | -1.37 |
| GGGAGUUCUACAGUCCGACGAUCUCCUGUGCUACACAUCGUAUGUACCGAAUCAAAUUUUUUUAAAUUUAAACCCCCCCAAAAAAGUAUUAUGUUACGCCGUUCGGAUCUGCAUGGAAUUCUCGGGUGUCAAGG | 0.109 |
| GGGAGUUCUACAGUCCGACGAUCUGGCCCUGGUGGCAUGCGGGGAGGAAGAGGUGGCCUCAUGGAUCGUGGUGGUCCCGGUGGAAUGUUCAGAGGUGGCCGUGGGGGAGACAGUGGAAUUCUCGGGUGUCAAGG | 0.359 |
| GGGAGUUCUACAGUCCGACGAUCCAAGUCCUGUGCUACACAUCGUAUGUACCGAAUCGGUUUUUGGUUUGGUUUUUGGAAAGUAUUAUGUUACGCCGUUCGGAUCUGCACUUCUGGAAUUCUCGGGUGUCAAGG | -0.872 |
| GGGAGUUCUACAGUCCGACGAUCCACAGACAACACGCACCCACACAGACACAGAGGGAAGGGGUUGCGAUGGGGACAGGGUGCACAGCAGGGCGGGGUAGGACCCCAGCCCCUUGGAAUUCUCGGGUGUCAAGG | 1.48 |
| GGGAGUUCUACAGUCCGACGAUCUAACUUUAGAGGAGGAUCUAAUGGAUAUGGCAGUGGACGUGGAUUUGGGGAUGGCUAUAAUGGGUAUGGAGGAGGACCUGGAGGUGGCAAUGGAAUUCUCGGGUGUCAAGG | 0.45 |

Series 4
Target: Sal-like protein 4, full length isoform A (SALL4, Homo sapiens, UniProt Q9UJQ4, residues 1-1053)
Sequence of UniProt Q9UJQ4 (whole entry, looked up): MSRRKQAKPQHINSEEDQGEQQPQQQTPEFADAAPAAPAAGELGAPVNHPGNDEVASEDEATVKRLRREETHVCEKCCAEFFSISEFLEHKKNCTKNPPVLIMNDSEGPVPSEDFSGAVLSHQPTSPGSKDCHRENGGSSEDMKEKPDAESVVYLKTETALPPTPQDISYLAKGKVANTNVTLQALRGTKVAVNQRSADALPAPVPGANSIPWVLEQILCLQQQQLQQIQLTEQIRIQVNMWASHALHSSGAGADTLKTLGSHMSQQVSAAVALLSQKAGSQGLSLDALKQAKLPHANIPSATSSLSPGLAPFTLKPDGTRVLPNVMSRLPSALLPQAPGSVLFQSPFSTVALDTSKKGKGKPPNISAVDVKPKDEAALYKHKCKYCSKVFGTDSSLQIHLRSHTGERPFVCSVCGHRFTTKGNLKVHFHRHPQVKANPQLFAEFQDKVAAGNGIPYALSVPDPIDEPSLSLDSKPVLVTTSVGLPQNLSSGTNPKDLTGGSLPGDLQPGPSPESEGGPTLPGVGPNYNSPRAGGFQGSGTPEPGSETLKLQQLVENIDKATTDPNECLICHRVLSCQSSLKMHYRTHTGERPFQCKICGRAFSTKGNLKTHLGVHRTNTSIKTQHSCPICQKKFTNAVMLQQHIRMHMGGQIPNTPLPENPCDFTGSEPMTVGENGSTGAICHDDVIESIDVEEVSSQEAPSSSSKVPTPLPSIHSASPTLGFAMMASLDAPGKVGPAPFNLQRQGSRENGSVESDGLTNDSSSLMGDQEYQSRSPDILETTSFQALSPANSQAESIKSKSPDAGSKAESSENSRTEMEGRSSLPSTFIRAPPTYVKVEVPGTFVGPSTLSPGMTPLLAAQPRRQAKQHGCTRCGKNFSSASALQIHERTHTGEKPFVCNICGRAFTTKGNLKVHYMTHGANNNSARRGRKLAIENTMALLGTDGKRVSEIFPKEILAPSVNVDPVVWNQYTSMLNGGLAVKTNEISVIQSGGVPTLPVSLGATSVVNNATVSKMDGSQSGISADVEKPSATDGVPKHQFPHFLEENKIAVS
Method: universal PBM
Form: double-stranded DNA, one strand shown
Sample: in vitro
Concentration: 600 nM
Notes: 8-mer, flanks averaged, mean of replicates
Reading: higher = stronger binding
| Strand | E-score |
| --- | --- |
| AGTTAGTA | 0.132 |
| ACAAAGAC | 0.16 |
| ATACGCCG | -0.102 |
| AACCAATC | 0.0576 |
| AGTTCACA | 0.127 |
| GTGGAGGA | -0.0352 |
| GCGCCTCA | -0.207 |
| ATGATAAC | 0.354 |
| GCGTCGCC | -0.325 |
| CCCGCGGC | -0.287 |
| ACTCGCAG | -0.096 |
| CAAGTCAA | 0.0231 |
| TGCATTAA | 0.197 |
| CACGCTGC | -0.283 |
| ACGGCCTA | -0.191 |
| TAAATGAA | 0.254 |
| ATGCTATA | 0.255 |
| CCGGTCTC | -0.26 |
| CGACAACC | -0.222 |
| CATCTCAA | 0.276 |
| CCCAGTGC | -0.294 |
| CCGTGAGG | -0.421 |
| AGTCCACA | -0.0477 |
| ATATGCGA | 0.238 |
| GAGCAGTA | 0.0768 |
